Measurements pooled from the literature.
Each numbered part is a random draw from the data of one study; scales do not carry over between parts.

Set 1
Target: Interferon regulatory factor 3, full length, phosphomimetic (IRF3, Homo sapiens, UniProt Q14653, residues 1-427, S386D/S396D/S398D/S402D/T404D/S405D)
UniProt Q14653, sequence (whole entry, unmodified, looked up): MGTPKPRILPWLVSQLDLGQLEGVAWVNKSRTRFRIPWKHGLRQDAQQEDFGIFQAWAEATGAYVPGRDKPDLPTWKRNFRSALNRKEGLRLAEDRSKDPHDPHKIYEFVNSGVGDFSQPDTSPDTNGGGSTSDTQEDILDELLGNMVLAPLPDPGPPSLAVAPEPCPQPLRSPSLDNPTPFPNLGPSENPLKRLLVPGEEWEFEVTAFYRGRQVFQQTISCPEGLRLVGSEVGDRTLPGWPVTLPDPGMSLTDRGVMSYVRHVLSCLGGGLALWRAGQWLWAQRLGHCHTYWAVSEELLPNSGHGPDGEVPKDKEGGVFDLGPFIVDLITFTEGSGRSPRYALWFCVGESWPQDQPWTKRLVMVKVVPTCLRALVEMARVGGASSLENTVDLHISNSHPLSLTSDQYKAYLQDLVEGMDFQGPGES
Method: protein-binding microarray
Form: double-stranded DNA, one strand shown
Sample: in vitro
Tested at: 2540 nM top
Setting: 60-bp whole probe
Added: salmon DNA 0.4 mg/ml
Reference: random background probes
Reading: higher = stronger binding
Constant ends, left off below: GCCTAGCAC … GTCTTGATTCGCTTGACGCTGCTG
Sequence | fitted relative affinity [z-score]
TTAGAACTGCTTATCCTTTAGTGCTAG | -0.102
TCACATCTCACTCTAATACTGTGCTAG | 1.22
TTAGGTCTCCTTCTCCTTCAGTGCTAG | 4.05
TCACGCTTCATCTCCCAGACTGTGCTA | 0.164
TTAGGTTTCGGGACTGGGCTAGTGCTA | 4.04
GACGATTTCAATTCCGAGACGTGCTAG | 2.08
GACGGAGTGCTACTGCTGACGTGCTAG | -0.913
GAAGGTCTCCTTCTCCTGACGTGCTAG | 3.79
TCACTTCTCTTTTGGCTACTGTGCTAG | 2.64
TCAACTCTTCCTTTACTACTGTGCTAG | 0.866
TTAGGACTGGGACTGAGTTAGTGCTAG | -0.944
TCTATCTGCAGACTCTCACAGTGCTAG | 0.461
GACGGTATCGACTTTAGGGACGTGCTA | 0.948
TTAGGTCTCAGTTTCGATTAGTGCTAG | 4.31
TCATCATTGCCTATTTTACTGTGCTAG | 0.467
TTAGATTGCGGGTATCGATTAGTGCTA | 0.211
ACTGAAATCACCCTTGGAAGTGTGCTA | 0.193
TCAGAAATCTCAATGGGACTGTGCTAG | -0.19
GACGGTCTCGGTTTCGCGACGTGCTAG | 2.8
TCATCTCCCAGACTGGAACTGTGCTAG | 0.92
TTAGCACTGAGACTGGATTAGTGCTAG | -0.604
TTAGTTTTCAGACTGGATTAGTGCTAG | 2.53
TTAGGTTTCCTACTGCTTTTGTGCTAG | 4.51
TTAGGACTGGACTATCGGTCAGTGCTA | -0.555
GAACATTTCCTTTACATTCCGTGCTAG | 2.84

Set 2
Target: Histone acetyltransferase KAT6A, winged helix 2, GST fusion (KAT6A, Homo sapiens, UniProt Q92794, residues 85-181)
Method: protein binding microarray
Form: double-stranded DNA, one strand shown
Sample: in vitro
Tested at: not given
Setting: 8-mer, flanks averaged, mean of 2 arrays, mostly near background
Reference: not given
Reading: higher = stronger binding
Construct (chain): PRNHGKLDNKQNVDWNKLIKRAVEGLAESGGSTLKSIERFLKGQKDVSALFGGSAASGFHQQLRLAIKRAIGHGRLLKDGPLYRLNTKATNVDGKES
Sequence | E-score
CCTCTGCC | 0.0202
TATCCCAA | 0.0997
AGTGGTTA | -0.172
CACCAGCC | 0.11
CTGCTCCC | 0.0899
CTATATGA | 0.0381
CGCCTAAA | 0.0997
AAACTTTC | 0.0411
CATTGGTA | -0.0539
ATTAGGCC | -0.065
CCCTGAAC | 0.103
ATTGAAGG | -0.116
AATTATAA | 0.0852
CTCCTGGA | -0.11
CTCTAAGA | -0.0479
ACTAAAAA | 0.0202
CCATTATA | -0.0565
CTGACAGC | -0.0196
AAGTGTGT | 0.0243
CTAGCATA | 0.0326
CGAGGGTA | -0.0124
CGTGGAAC | 0.0184
GCATAACA | -0.0658
CCAACCCG | 0.163
GACGCCAA | -0.097

Set 3
Target: RNA binding protein fox-1 homolog 2, RRM domain, GST-SBP tag (RBFOX2, Homo sapiens, UniProt O43251-10, residues 100-194)
Method: RNA Bind-n-Seq
Form: RNA
Sample: in vitro
Tested at: 365 nM
Setting: natural RNA segment, single round, ends assumed
Reference: no-protein control
Reading: higher = stronger binding
Constant ends, left off below: GGGAGUUCUACAGUCCGACGAUC … UGGAAUUCUCGGGUGCCAA
Target sequence (chain): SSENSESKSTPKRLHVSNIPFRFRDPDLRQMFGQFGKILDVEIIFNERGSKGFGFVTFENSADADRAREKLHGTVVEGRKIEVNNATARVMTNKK
Sequence | RBNS enrichment (R)
GUAACAUCUUACAUUCUGUUUUCUUCCAGUCUUUGCAGUAUUCACUAGAGGUUCCCUUUGCAUGUUGCACUCUGUUCUCAUUUGGAGAUUGAACUCUGAAUUAACACAGU | 7.58
GACCAAAGUCCCUCCAAAGUGCUCUUCCUUCUGGGUUAUUCAAGCCAAAUAUCUGGGUUUCCCCCUCUCCUCAUUCCCUAGCAAACCCCAAUUAUCUUCCAAGAUAGGAG | 0.398
AUAGGCAACUUGGUACUAUCUUAUUCUGAGUAGAGAGUGGAGAAAGUAUUUUCAGACUGAAGAAAACUUUGAAAAGUCAGGAGCUAAGCUGCUCGGAGCUCAGUGCCGCA | 1.56
CCCUCUCCUAGCACUGUACCUUUACCCAGCGAGUCCCCACACUGUGGUCUUCUUGCACAGUGUGUGGCAGUUGAGAAAGCCUAGAAAAGGUGCCCAUUUGACCACUGUGA | 0.37
GAAAGCCAGAGAGUCACUCUUACCUCCCUGUCUGCUUACUCACCCACUCUGUCCUUUCCUCACCAACUAACAUGUGCCAGCCAGGCAGAGUCUUGUGCUGUUCCCAGAAC | 0.667
AAAUUGAGCGAGAUCUCAGGCUGAGCAAAAUGAAACCUUGAUGUUACGGGCUAAAUCAAGAGCAGCUUAAUCCUGUUUACAAUGUGAGCUUUUUGUGCGUCUGUGAAAUG | 0.718
UGAUAUUUAUGUACAUAUUAAGAUAAAUGUCAUGUGUAAGAUAACUGAUAAAUAUUGGAACUUUGCUAGAACAAGACCCUGUAGUAAUAGUAAUAAUAGUUGAAGUUUGG | 0.601
CCUCGAGGCACCAUUCCAGCCAGGGACGCUGCCGGGUAGACUCUCCACUCCCCCUGCCGCCCACACUGCAGCAGCCACAUCCAUACACACACGCUCGCACAGUGUUCUGA | 1.01
UUACCUUCAGACAUGGUGCCGUGUUGGGAGCAACCUCAGUGGGUUUGCACUACACUCACUCCGUGCUGCAAGUCCAGGGAUACUGUCUGUGGCCACUGAAGUCUCAGGUG | 0.422
CUACCCACCUCAGCCUCCUGUGUAGCUGGGAUUAUAGAUUGGAGCCACCAUGCCCAGCUCAGAGGGUUGUUCUCCUAGACUGACCCUGAUCAGUCUAAGAUGGGUGGGGA | 0.366
GAGCCAGCAGGCAGGCGGGAAGGGCCAAGUACAGGCAAUCACCCCCAUCUUCUUGGUUUGAAGCUUUAUCCAUGUAUCAUGUUCCGUGUAGCCAUUUUAUUUUUUAAGAA | 0.426
UAGGAUUCUAUUACAUAUGCAAUUUGAGGUCUAACUUGUCCCUUUCCCUGCCAGCCAACCCCCACCACUCUAAGAGAAAUUUUAGCUUAUAUAUGACGGUAUAUUUGCAA | 0.197

Set 4
Target: TAR DNA-binding protein 43, full length, His tag (TARDBP, Homo sapiens, UniProt Q13148, residues 1-414)
Method: RNA Bind-n-Seq
Form: RNA
Sample: in vitro
Tested at: 20 nM
Setting: 6-mer, flanks averaged, single round
Added: 150 mM LiCl
Reference: input library
Reading: higher = stronger binding
Sequence | 6-mer enrichment (R)
UGGCGU | 1.11
AGCGAG | 1.04
GUAACA | 0.843
UUAAGU | 1.01
AGAUGC | 0.906
CAGUAC | 0.846
AAGGUA | 0.93
UAUAUG | 1.08
CGGGAU | 0.953
ACCGGU | 0.882
UGUUGG | 1.3
GUAUUG | 1.1
CUAAGG | 0.848
AACAUU | 0.891
UUUGUA | 1.25
CCCAGU | 1.01
GCGACG | 0.942
CCGCCU | 0.959
CUCGCG | 0.857
GGCUAC | 0.876

Set 5
Target: Sal-like protein 4, full length isoform B (SALL4, Homo sapiens, UniProt Q9UJQ4-2, residues 1-616)
Method: universal PBM
Form: double-stranded DNA, one strand shown
Sample: in vitro
Tested at: not given
Setting: 8-mer, flanks averaged, mean of replicates
Reading: higher = stronger binding
Sequence | E-score
AGCGAGAG | -0.0641
ACATGGTC | 0.00307
AAAGACAG | 0.0171
AGCCGCCC | -0.316
ATTTTTCG | 0.302
CCTATAGC | 0.117
CAAATGGA | 0.00184
CTGTGGGA | -0.232
CTCGATGA | 0.06
TAAAGATA | 0.202
CGAATGAG | -0.0292
ACCAGGCG | -0.293
ACTCGAAC | -0.0619
GTTAGAAC | 0.0644
CAAGATCG | 0.0363
CACCCGTG | -0.247
ATCCATAA | 0.359
AGTTCAGA | 0.00579
TGGATGAA | 0.11
CGAGACGC | -0.126
ATCATAAG | 0.349
CCACCTCG | -0.244
CCAATGCA | -0.0296
AGTCTGTC | -0.0282
GGACTAAA | 0.0574

Set 6
Target: Myc proto-oncogene protein, bHLH-zipper, MAX partner unstated (MYC, Homo sapiens, UniProt P01106, residues 368-449)
UniProt P01106, sequence (368-449, looked up): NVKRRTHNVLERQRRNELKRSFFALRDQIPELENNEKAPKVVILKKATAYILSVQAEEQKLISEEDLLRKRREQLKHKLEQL
Method: protein-binding microarray
Form: double-stranded DNA, one strand shown
Sample: in vitro
Tested at: not given
Setting: k-mer, scored over probes, only values ≥0.25
Reading: higher = stronger binding
Sequence | E-score
ACACGGTG | 0.261
GCACATGA | 0.43
CACGTTGA | 0.396
ACGCGCTG | 0.291
CGACCCAC | 0.26
GAGCATGC | 0.424
CACGCAAA | 0.258
ACTCGTGG | 0.418
ACGTGAGG | 0.346
ACATGCGT | 0.443
TACACGCA | 0.303
GCATGGCC | 0.46
ATAGCGTG | 0.364
ATGTGTCG | 0.277
CATGCATC | 0.358
AACACGCA | 0.388
